Published values gathered from unrelated publications.
A part holds a random share of what one study measured. Changes are numbered by the printed parent chain.

Series 1
Target: RNA binding protein fox-1 homolog 2, RRM domain, GST-SBP tag (RBFOX2, Homo sapiens, UniProt O43251-10, residues 100-194)
Method: RNA Bind-n-Seq
Form: RNA
Medium: in vitro
Tested at: 365 nM
Notes: natural RNA segment, single round, ends assumed
Reference: no-protein control
Direction: higher = stronger binding
Shared flanks, not repeated: GGGAGUUCUACAGUCCGACGAUC … UGGAAUUCUCGGGUGCCAA
Target sequence (chain): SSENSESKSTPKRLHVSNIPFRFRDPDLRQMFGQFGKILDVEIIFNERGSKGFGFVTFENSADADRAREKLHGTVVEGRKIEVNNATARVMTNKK
Under “RBNS enrichment (R)”, `UUGUUUUUUAAUGUUUCAUGACUCCCACUUUGAUUUUACAUGUUUUCUUGUAAAUAAGCCUGCCUUCCUACCUGGAAUUUGUGUGUGUGUGACUAAUACAUGUUCUACGA` is recorded as 1.06.
`GAGGUUUGGGAGUGGGAUAAGGAGAGGAGACCGACUUCGGAGGUCCCUGAAAUAAAGUGAUACAAUUAGACCUCACAUGCUUUUGCUGUCUCCGGAGCGCCGCCCCUCCC` — result for “RBNS enrichment (R)”: 0.484.
`CCCCUCCCAGAUGUUGGACCAACACCCCUCCCUGCCACCAGGCACUGCCUGGAGGGCAGGGAGUGGGAGCCAAUGAACAGGCAUGCAAGUGAGAGCUUCCUGAGCUUUCU`: “RBNS enrichment (R)” 0.805.
`GUGCGUUCAUGGUUUCUUCACUAACAGAGGAAUUAUGCUUUGCACUACGUCCCUCCAAGUGAAGACAGACUGUUUUAGACAGACUUUUUAAAAUGGUGCCCUACCAUUGA`: “RBNS enrichment (R)” 0.225.
Under “RBNS enrichment (R)”, `CCGGCUGUGGAGCUCCCCUGCCAGCCCCUGGAGCUCCAGGAGGGCCUGUUGGUCCCCUGUUCAGAAUGGAGUGCAGCCCGCCAGCGGAAAGUGUUCAUUCUGCAUAGGUG` is recorded as 0.134.
`UAUUGGCCAAAGCAUUCUUACAGAACAGUGUCUAAAAGGUCAUUCCCAACCCUUUCUGAUAUUGGCUAAGACCUCAGUAUCUCCCAGUAGCACUUCUUCUGGAUUUGAAU`: “RBNS enrichment (R)” 0.475.
Under “RBNS enrichment (R)”, `CAGGACGCUGAGGUACUUACUACCCUGGUCUCGGGAACUGCCUGCCUAGGGCAACAGAUGUCCUGACUAAUCUGGCUUCUGGUUCCCGGUCCAUCCCUAUUUACAAAGCU` is recorded as 0.198.
`GGGGAGGAACUGCACCAGCGCACAAUCCUAAGAGCCUCGGCUCCUUGCCCAUUCACUUCAGUCUGCAGAAAGCCUCUUCCCUGGGUUGUCAGCCAGAAAAAAGGAGAGGU`: “RBNS enrichment (R)” 0.479.

Series 2
Target: Interferon regulatory factor 3, full length, phosphomimetic (IRF3, Homo sapiens, UniProt Q14653, residues 1-427, S386D/S396D/S398D/S402D/T404D/S405D)
Method: protein-binding microarray
Form: double-stranded DNA, one strand shown
Medium: in vitro
Tested at: 2540 nM top
Notes: 60-bp whole probe
Together with: salmon DNA 0.4 mg/ml
Reference: random background probes
Direction: higher = stronger binding
Shared flanks, not repeated: GCCTAGCAC … GTCTTGATTCGCTTGACGCTGCTG
Residues (chain): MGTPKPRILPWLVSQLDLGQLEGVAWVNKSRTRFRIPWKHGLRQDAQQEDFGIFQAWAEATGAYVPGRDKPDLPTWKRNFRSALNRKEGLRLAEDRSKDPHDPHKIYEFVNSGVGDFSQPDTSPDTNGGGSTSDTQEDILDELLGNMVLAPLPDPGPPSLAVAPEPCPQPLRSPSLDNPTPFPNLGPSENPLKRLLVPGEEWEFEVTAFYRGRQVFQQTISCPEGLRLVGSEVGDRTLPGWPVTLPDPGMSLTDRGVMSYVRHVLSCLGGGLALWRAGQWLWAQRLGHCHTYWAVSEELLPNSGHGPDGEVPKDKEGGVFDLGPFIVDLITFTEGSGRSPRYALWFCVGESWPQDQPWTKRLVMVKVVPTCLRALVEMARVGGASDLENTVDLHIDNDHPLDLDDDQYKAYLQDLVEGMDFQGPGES
Under “fitted relative affinity”, `TTAGATATCCTTATCCTTTAGTGCTAG` is recorded as 3.12 z-score.
For `TTAGGTTGCGACTTTCGGTTAGTGCTA`, “fitted relative affinity” read 2.2 z-score.
`TTAGGTATCGGCTTTCGGTTAGTGCTA` — result for “fitted relative affinity”: 1.77 z-score.
`GACGACTTCAGACTGGAGACGTGCTAG`: “fitted relative affinity” -0.268 z-score.
`TGAGGTATCGGGTTTCGGTTAGTGCTA` — result for “fitted relative affinity”: 3.81 z-score.
Under “fitted relative affinity”, `TTACGTATCGGTTTCGGTTAGTGCTAG` is recorded as 8.14 z-score.
`TTCCTTGCTATGTTGCTCAGGTGCTAG` — result for “fitted relative affinity”: 0.233 z-score.
Under “fitted relative affinity”, `GAAAGGTACCATGGTGGCTCGTGCTAG` is recorded as 0.566 z-score.
`GACGGTCTCCTTTTCCAGACGTGCTAG` — result for “fitted relative affinity”: 5.03 z-score.
For `GACGAGCTGAGACTGGAGACGTGCTAG`, “fitted relative affinity” read -0.845 z-score.
`TAAGGTATCGGTATCGGTTAGTGCTAG` — result for “fitted relative affinity”: 5.32 z-score.
Under “fitted relative affinity”, `AGCCGTCTCCACCTGGGCAAGTGCTAG` is recorded as 0.0662 z-score.
Under “fitted relative affinity”, `TCATATCTAAGATTCTAACTGTGCTAG` is recorded as 0.915 z-score.
Under “fitted relative affinity”, `ACTCATTTTCGTTTTGTGTCGTGCTAG` is recorded as 4.07 z-score.
`AGGAAAGTGTTTCTCAACCAGTGCTAG` — result for “fitted relative affinity”: 0.773 z-score.
`TCAGTTTCCTCTTTCTTACTGTGCTAG` — result for “fitted relative affinity”: 6.9 z-score.
`GACGGTATCGACTATCAGGACGTGCTA` — result for “fitted relative affinity”: 0.877 z-score.
Under “fitted relative affinity”, `TTAGATTCGAGTTTCGATTAGTGCTAG` is recorded as 3.27 z-score.
For `TCAGGCCTCTTGCTCAGACTGTGCTAG`, “fitted relative affinity” read -0.696 z-score.

Series 3
Target: CCND3, cyclin fold, Cln2 fusion (human)
Method: yeast growth competition, sequencing
Medium: yeast
Notes: weak parent motif
Reference: not given
Direction: higher = stronger binding
Starting sequence: SLBP docking peptide (human); ARYKRKLLINDFG; partner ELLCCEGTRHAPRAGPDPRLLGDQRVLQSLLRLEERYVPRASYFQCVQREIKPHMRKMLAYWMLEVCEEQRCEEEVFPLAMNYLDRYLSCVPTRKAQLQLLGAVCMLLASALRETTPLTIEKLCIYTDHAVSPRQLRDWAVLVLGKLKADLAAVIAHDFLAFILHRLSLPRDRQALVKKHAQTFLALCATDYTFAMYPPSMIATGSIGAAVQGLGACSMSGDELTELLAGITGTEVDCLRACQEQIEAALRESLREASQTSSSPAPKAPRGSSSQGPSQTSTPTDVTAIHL
`ARYKRKLLRNDFG [I9R]` — result for “normalised enrichment score”: 0.137.
`ARYKRKPLINDFG [L7P]`: “normalised enrichment score” 0.122.
`ARYKRKLLINDHG [F12H]`: “normalised enrichment score” 0.0741.
`ARYKRKLLINDKG [F12K]`: “normalised enrichment score” 0.0662.
`ARYKRKLLINQFG [D11Q]`: “normalised enrichment score” 0.259.
`ARYKRKLLSNDFG [I9S]`: “normalised enrichment score” 0.228.
`ARYKRKLLINIFG [D11I]`: “normalised enrichment score” 0.171.
`ARYKLKLLINDFG [R5L]`: “normalised enrichment score” 0.224.
Under “normalised enrichment score”, `ARYPRKLLINDFG [K4P]` is recorded as 0.108.
For `AAYKRKLLINDFG [R2A]`, “normalised enrichment score” read 0.144.
For `ARAKRKLLINDFG [Y3A]`, “normalised enrichment score” read 0.207.
`ARYKRNLLINDFG [K6N]` — result for “normalised enrichment score”: 0.232.
For `LRYKRKLLINDFG [A1L]`, “normalised enrichment score” read 0.164.

Series 4
Target: Sal-like protein 4, full length isoform A (SALL4, Homo sapiens, UniProt Q9UJQ4, residues 1-1053)
UniProt Q9UJQ4, sequence (whole entry, looked up): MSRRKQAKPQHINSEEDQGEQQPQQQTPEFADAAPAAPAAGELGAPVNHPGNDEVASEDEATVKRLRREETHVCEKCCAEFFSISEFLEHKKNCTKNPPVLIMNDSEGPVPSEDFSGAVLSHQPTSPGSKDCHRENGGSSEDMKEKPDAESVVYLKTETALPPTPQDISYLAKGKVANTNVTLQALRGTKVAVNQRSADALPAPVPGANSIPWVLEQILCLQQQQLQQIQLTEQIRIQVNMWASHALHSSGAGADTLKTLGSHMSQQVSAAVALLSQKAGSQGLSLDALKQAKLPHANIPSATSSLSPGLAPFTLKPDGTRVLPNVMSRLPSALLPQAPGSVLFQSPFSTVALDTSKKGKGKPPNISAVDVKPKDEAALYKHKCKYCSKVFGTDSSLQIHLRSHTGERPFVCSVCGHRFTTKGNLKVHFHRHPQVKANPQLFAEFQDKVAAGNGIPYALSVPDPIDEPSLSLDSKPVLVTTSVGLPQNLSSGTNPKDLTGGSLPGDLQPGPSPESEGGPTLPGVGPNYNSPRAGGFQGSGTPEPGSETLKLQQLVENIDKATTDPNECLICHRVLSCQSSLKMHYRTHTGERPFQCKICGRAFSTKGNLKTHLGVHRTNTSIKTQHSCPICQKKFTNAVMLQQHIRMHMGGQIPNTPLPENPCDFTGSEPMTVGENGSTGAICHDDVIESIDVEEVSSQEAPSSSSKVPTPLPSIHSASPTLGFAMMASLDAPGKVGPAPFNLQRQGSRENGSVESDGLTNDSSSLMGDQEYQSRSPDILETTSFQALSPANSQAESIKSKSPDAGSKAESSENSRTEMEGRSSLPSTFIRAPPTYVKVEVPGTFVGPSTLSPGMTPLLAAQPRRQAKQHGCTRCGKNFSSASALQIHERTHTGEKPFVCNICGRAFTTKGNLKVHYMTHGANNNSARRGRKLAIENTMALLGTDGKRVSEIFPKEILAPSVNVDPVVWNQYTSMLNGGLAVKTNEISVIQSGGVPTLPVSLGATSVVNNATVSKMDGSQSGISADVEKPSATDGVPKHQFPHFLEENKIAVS
Method: universal PBM
Form: double-stranded DNA, one strand shown
Medium: in vitro
Tested at: 600 nM
Notes: 8-mer, flanks averaged, mean of replicates
Direction: higher = stronger binding
`CACATGAC` gave an E-score of -0.00409.
`CACAATCA` has an E-score of 0.0944.
With `ATTCAAGG` the E-score was 0.0368.
With `CTGATCCA` the E-score was 0.0516.
With `ATTCGCGG` the E-score was 0.101.
With `CTTAAATA` the E-score was 0.228.
The E-score of `CTGCCACA` is reported as -0.19.
For `GAGCGCGA`, the E-score was -0.156.
For `ATTCTTCG`, the E-score was 0.0838.
`CAAAATGG` has an E-score of 0.17.
`CCTTAGGC` has an E-score of -0.282.
`GAGTGACC` has an E-score of -0.251.
The E-score of `ATTAATTA` is reported as 0.399.
The E-score of `CTACACTC` is reported as -0.107.
`AAACCACT` has an E-score of 0.0411.
The E-score of `CATTCTGG` is reported as -0.0343.
The E-score of `GCCAACGC` is reported as -0.246.
The E-score of `ACTTTTGC` is reported as 0.125.

Series 5
Target: Ras GTPase-activating protein-binding protein 1, full length (G3BP1, Homo sapiens, UniProt Q13283)
UniProt Q13283, sequence (whole entry, looked up): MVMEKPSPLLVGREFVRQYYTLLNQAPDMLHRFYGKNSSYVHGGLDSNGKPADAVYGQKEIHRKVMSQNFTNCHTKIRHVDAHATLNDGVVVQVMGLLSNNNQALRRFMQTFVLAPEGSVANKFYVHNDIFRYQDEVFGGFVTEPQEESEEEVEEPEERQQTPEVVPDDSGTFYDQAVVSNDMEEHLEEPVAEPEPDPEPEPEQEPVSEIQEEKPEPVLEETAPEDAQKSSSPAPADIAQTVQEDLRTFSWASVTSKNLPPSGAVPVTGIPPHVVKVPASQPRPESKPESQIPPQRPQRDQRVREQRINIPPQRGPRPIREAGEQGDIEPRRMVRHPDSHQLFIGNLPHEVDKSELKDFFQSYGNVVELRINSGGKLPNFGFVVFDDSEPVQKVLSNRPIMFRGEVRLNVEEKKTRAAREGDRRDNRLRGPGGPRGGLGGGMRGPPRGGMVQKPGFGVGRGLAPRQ
Method: RNA Bind-n-Seq
Form: RNA
Medium: in vitro
Tested at: 200 nM
Notes: whole 134-nt RNA, ends assumed
Together with: 150 mM KCl
Reference: input library
Direction: higher = stronger binding
Shared flanks, not repeated: GGGAGUUCUACAGUCCGACGAUC … UGGAAUUCUCGGGUGUCAAGG
The log2 enrichment of `AAGUCCUGUGCUACACAUCGUAUGUACCGAAUCAAAUUUAAACCCCCAAACCCAAAAAAGUAUUAUGUUACGCCGUUCGGAUCUGCACUU` is reported as -0.47.
With `CAAGUCCUGUGCUACACAUCGUAUGUACCGAAUCGGUUUUGGGUUUUGGGUUUUGGAAAGUAUUAUGUUACGCCGUUCGGAUCUGCACUU` the log2 enrichment was -1.22.
The log2 enrichment of `GCAGGAAGUAAAAACAAAUGGAAAUGCUUCGGAUAGUGGCAGGGGUGGGGGUUGCUAAGGAGAGGGUGGGAUGGGAGUGGGUAAAGAGUU` is reported as 0.877.
The log2 enrichment of `UUACUUUAGAGGAGGAUCUGAUGGAUAUGGCAGUGGACGUGGAUUUGGGGAUGGCUAUAAUGGGUAUGGAGGAGGACCUGGAGGUGGCAA` is reported as 0.419.
`GCAGGAAGUAAAAACAAAUGCAAAUGCUUCGGAUAGUGGCAGGGGUGGGGGUUGCUAAGGAAAGGGUGGGAUGGGAGUGGGUAAAGAGUU` has a log2 enrichment of 0.469.
`CUGUGCUACACAUCGUAUGUACCGAAUCGGGGUUUUUUUGGGGAAAAAGGGGUUUUUGGGGAAAGUAUUAUGUUACGCCGUUCGGAUCUG` gave a log2 enrichment of -0.209.
The log2 enrichment of `UGGCCCUGGUGGCAAGCGGGGAGGAAGAGGUGGCCUCAUGGAUCGUGGUGGUCCCGGUGGAAUGUUCAGAGGUGGCCGUGGUGGAGACAG` is reported as 0.21.

A few entries again (series 4):
For `ATTCTTCG`, the E-score was 0.0838.
`CAAAATGG` has an E-score of 0.17.
`CCTTAGGC` has an E-score of -0.282.
`GAGTGACC` has an E-score of -0.251.
